Published values pooled from the literature.
Each numbered part is a random draw from the data of one study; scales do not carry over between parts.

Study 1
Target: Phosphate system positive regulatory protein PHO4, full length, GST-tagged (PHO4, Saccharomyces cerevisiae, UniProt P07270, residues 1-312)
Method: competition protein-binding microarray
Molecule type: double-stranded DNA, one strand shown
Matrix: in vitro
Concentration: 2 µM
Notes: whole 60-bp probe, lowest competitor level
Added: Cbf1 competitor, 0.05 µM
Direction: higher = stronger binding
Constant ends, left off below: … GTCTTGATTCGCTTGACGCTGCTG
Target sequence (chain): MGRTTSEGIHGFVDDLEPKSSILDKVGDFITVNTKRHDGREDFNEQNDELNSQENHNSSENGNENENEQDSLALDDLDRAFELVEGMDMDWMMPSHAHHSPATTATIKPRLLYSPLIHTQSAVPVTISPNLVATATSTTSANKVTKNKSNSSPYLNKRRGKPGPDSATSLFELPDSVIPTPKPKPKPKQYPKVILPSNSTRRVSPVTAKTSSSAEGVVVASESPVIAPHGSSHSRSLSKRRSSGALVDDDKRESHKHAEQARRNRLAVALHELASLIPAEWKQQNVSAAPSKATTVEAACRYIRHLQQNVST
Oligonucleotide | fluorescence intensity
AACGACGAATCCTGTCACATGTCTTGCTTGGTCGCA | 10100 a.u.
GCACTACCATGTTTGCACGTGTTGGTGTCCTCATCA | 17700 a.u.
GTTGAATAAAGATTTCACGTGACTCGAGCTGGTCTT | 9710 a.u.
TCCTTATCTGGCGTACCCGTGCAAACGTTTCCGGGC | 9630 a.u.
TGCGCAACAACTTGCCAGGTGGGTGTATGTCTAGAA | 6080 a.u.

Study 2
Target: PABPC1L2, full length, GST fusion (mouse, UniProt A0ABA7IW68)
Method: RNAcompete
Molecule type: RNA
Matrix: in vitro
Concentration: 20 nM
Notes: 7-mer, probes averaged, single round
Baseline: mean of 7-mers
Direction: higher = stronger binding
Construct (chain): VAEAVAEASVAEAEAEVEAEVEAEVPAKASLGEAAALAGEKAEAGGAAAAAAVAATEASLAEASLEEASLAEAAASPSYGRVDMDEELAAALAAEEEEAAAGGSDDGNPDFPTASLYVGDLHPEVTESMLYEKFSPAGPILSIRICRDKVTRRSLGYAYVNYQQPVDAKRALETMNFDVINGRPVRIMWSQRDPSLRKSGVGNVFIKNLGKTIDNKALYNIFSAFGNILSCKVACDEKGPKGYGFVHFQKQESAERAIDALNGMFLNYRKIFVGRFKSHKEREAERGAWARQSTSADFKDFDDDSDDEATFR
Oligonucleotide | 7-mer Z-score
UGAUGUA | -0.246
AAUUUGA | 0.209
AAAAUUG | 6.96
UGUUCCG | -0.385
CUGCAAU | -0.135

Study 3
Target: Interferon regulatory factor 3, full length, phosphomimetic (IRF3, Homo sapiens, UniProt Q14653, residues 1-427, S386D/S396D/S398D/S402D/T404D/S405D)
Sequence of UniProt Q14653 (whole entry, unmodified, looked up): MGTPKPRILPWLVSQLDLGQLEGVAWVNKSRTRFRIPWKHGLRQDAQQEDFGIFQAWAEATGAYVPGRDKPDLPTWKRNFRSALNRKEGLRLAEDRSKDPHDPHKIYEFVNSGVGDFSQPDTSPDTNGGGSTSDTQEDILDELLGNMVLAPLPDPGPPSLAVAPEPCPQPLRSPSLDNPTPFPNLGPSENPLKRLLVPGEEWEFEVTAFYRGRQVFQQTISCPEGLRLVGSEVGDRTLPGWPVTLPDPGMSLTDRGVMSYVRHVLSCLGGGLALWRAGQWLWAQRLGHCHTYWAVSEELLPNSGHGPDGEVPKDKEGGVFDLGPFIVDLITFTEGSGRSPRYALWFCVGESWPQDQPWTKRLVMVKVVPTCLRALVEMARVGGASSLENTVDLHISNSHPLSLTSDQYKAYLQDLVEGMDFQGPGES
Method: protein-binding microarray
Molecule type: double-stranded DNA, one strand shown
Matrix: in vitro
Concentration: 2540 nM top
Notes: 60-bp whole probe
Added: salmon DNA 0.4 mg/ml
Baseline: random background probes
Direction: higher = stronger binding
Constant ends, left off below: GCCTAGCAC … GTGCTAGGTCTTGATTCGCTTGACGCTGCTG
Oligonucleotide | fitted relative affinity [z-score]
GACCGTTTCGGTCTCGGGAC | 7.77
GACGGTTTCCTACTGATGAC | 4.79
GACGAACTGAGTTTCTAGAC | 0.348
GACGGTTTCGGTTTTGGGAC | 9.42
TTAGATCTCAGTTACGATTA | 0.512
GACGGTATTGGTATCGGGAC | 1.5
TCACCTTTTCACTTTACACT | 4.56

Further values, each from its own experiment
Molecule | target | test | system | setting | scale | endpoint | value
PhoQ, residues 284 288 289 292 302 303 TLMATV | PhoP, residues 12 14 15 18 19 LHSVW (Escherichia coli, UniProt P23836) | Sort-seq, measured: YFP reporter | E. coli | PhoQ-PhoP variant library, added: 10 µM Mg2+ | baseline: high Mg2+ state, higher = stronger signaling | fold induction | 2.31
